Results collected from several papers.
Compare with care: the assays were run in different laboratories.
FLT3: Receptor-type tyrosine-protein kinase FLT3 (FLT3, Homo sapiens, UniProt P36888)
FLT3 K663Q: Receptor-type tyrosine-protein kinase FLT3 (FLT3, Homo sapiens, UniProt P36888, K663Q)

Nc1ncc2c(n1)-c1c([nH]c3ccc(C4=CCOCC4)cc13)CCC2 — remaining binding (FLT3 (Homo sapiens, UniProt P36888, R834Q); binding, competition with immobilised ligand; 1 µM): 100%
CN1CCN(Cc2ccc(NC(=O)c3cccc(C#Cc4cnc(N)c5ncccc45)c3)cc2C(F)(F)F)CC1 — remaining binding (FLT3; cell-free assay, competition with immobilised ligand; 50 nM): 5.1%
CCN1CCN(Cc2ccc(NC(=O)c3ccc(C)c(NC(=O)c4cncc(-c5cccs5)c4)c3)cc2C(F)(F)F)CC1 — remaining binding (FLT3 (Homo sapiens, UniProt P36888, D835Y); binding, competition with immobilised ligand; 1 µM): 15%
COc1c(Cl)cccc1Nc1c(-c2ccncc2C#C[C@@]2(C)CCCN2C(=O)/C=C/CN(C)C)[nH]c2c1C(=O)NCC2 — remaining binding (FLT3 K663Q; binding, competition with immobilised ligand; 3 µM): 93%
Cc1cnc2nc1Nc1cccc(c1)COC/C=C/COCc1cc(ccc1OCCN1CCOCC1)N2 — remaining binding (FLT3 (Homo sapiens, UniProt P36888, D835V); binding; 0.1 µM): 0%
C=CC(=O)N1CCc2ccc(-n3c(=O)ccc4cnc5ccc(-c6cnn(C)c6)cc5c43)cc21 — remaining binding (FLT3 (Homo sapiens, UniProt P36888, N841I); KINOMEscan; 1 µM; baseline: DMSO control): 99%
COc1ccc(NC(=O)Nc2ccc3c(c2)C(=O)N(C(C)CO)CC(C)C(CN(C)Cc2ccc4c(c2)OCO4)O3)cc1 (stereo not shown) — remaining binding (FLT3; binding, competition with immobilised ligand; 10 µM): 65%
CCN1CCN(Cc2ccc(C(=O)Nc3ccc(C)c(NCc4cnc5[nH]ccc5c4OC)c3)cc2C(F)(F)F)CC1 — remaining binding (FLT3 K663Q; binding, competition with immobilised ligand; 1 µM): 0.55%
CNC1C[S+]2CC[S+]3CC[S+](C1)[Ru-4]321([N]=C=S)[n]2c3ccc(OC)cc3c3c4c(c5cc(F)c[n+]1c5c32)C(=O)NC4=O (stereo not shown) — remaining binding (FLT3 K663Q; KinomeScan; 0.1 µM; baseline: untreated): 34%
CC(C)=CC1OC(C)(C)C2C=C3C(=O)C(Cl)=CC(O)C3C3C(O)C4OC4C(=O)C132 (stereo not shown) — remaining binding (FLT3 (Homo sapiens, UniProt P36888, ITD); cell-free assay, competition with immobilised ligand; 10 µM): 83%
Cc1ccc(-c2c(/C=C(\C#N)C(=O)NC(C)C)n(CCCO)c3ncnc(N)c23)cc1 — remaining binding (FLT3 (Homo sapiens, UniProt P36888, D835H); cell-free assay, competition with immobilised ligand; 1 µM): 100%
C=CC(=O)N1CCCC(n2c(=O)c3ncccc3n(Cc3ccc(Oc4ccccc4)cc3)c2=O)C1 (stereo not shown) — remaining binding (FLT3; cell-free assay, competition with immobilised ligand; 1 µM): 91%
CNC(=O)C1CCN(c2cc(C)c(F)cc2NC(=O)c2ccc(-c3cc(O)ccc3C)c(C)c2)CC1 — remaining binding (FLT3 K663Q; binding, competition with immobilised ligand; 1 µM): 100%
